Measured values gathered from unrelated publications.
Every numbered part comes from another study and shows a few of its results, in no order.

Set 1 — technique: protein-binding microarray; molecule type: double-stranded DNA, one strand shown; medium: in vitro; tested at: not given; reading: higher = stronger binding; measurement: E-score
Target: Max-binding protein MNT, bHLH-zipper, MAX partner unstated (MNT, Homo sapiens, UniProt Q99583, residues 220-300)
Notes: k-mer, scored over probes, only values ≥0.25
Target sequence (chain): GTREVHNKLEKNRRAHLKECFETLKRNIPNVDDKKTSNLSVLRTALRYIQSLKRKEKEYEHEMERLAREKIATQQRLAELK
CGCGTGGC: 0.465
ATGCATGG: 0.333
CCGCGTGC: 0.467
ACGCACAC: 0.306
CAACCACG: 0.409

Set 2 — technique: RNA Bind-n-Seq; molecule type: RNA; medium: in vitro; tested at: 365 nM; baseline: no-protein control; reading: higher = stronger binding; measurement: RBNS enrichment (R)
Target: RNA binding protein fox-1 homolog 2, RRM domain, GST-SBP tag (RBFOX2, Homo sapiens, UniProt O43251-10, residues 100-194)
Notes: natural RNA segment, single round, ends assumed
Construct (chain): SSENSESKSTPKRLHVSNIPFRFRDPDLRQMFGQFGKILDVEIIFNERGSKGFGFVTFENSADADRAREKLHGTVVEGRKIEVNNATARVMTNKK
GGGAGUUCUACAGUCCGACGAUCAAGAGGAAGAGGGAGGGAAGGGGAGCAAGCAAAUCCAGGUCUUUUCUUGUACCAGUGGAACCUGCUCUGAAUCUCCCAAGUCCUCCACUGUGAAUUGGGCUGGGUGGGGGUGGAAUUCUCGGGUGCCAA: 0.871
GGGAGUUCUACAGUCCGACGAUCGUUAUGUUUCAGAUUUUCAAAUUUAUUUAUACGUGUUAUAAUGAAUGCUUCUAUUUAAAGGGGAAAUAUUUCUACAUGUGCAUAUAGUUUUCCAAGAGUGUACCAUUAACUGGAAUUCUCGGGUGCCAA: 0.917
GGGAGUUCUACAGUCCGACGAUCCUAAGAAAGCUGAACAAAGGGAGAGACGAGAGCGCCUGAAGCCAGGAGCUCCUUUACUAUCUUUCUCAAAAGGGUUGUUAGACACAAACCAAGUCAUCAAGGCCCCGCUCUGGAAUUCUCGGGUGCCAA: 0.284
GGGAGUUCUACAGUCCGACGAUCGCAAGACAUGAACUGACUAAUUGGUAUCCACUACUUGUACAGCUUACAUAAAUGAGUUGAUGAUAUUUAACCAGUUUUUAUAAACUUCAUUUAGGUCUCUAAACACAGACUGGAAUUCUCGGGUGCCAA: 0.278

Set 3 — technique: protein binding microarray; molecule type: double-stranded DNA, one strand shown; medium: in vitro; tested at: not given; baseline: not given; reading: higher = stronger binding; measurement: E-score
Target: Histone acetyltransferase KAT6A, both winged helices, GST fusion (KAT6A, Homo sapiens, UniProt Q92794, residues 1-181)
Notes: 8-mer, flanks averaged, mean of 2 arrays, mostly near background
Target sequence (chain): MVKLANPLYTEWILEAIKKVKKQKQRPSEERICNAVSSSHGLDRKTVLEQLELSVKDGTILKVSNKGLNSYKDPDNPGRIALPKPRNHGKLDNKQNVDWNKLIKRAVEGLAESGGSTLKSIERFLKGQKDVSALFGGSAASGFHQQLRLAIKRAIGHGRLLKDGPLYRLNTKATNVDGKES
AAAGTCTC: -0.148
CGTACATA: 0.078
ATTCAAGC: 0.0917
ACGATATG: 0.0779
GGTGAGGA: -0.126
CATGAGCC: -0.116
GCCGACAC: 0.21

Other studies, line by line
PhoQ, residues 284 288 289 292 302 303 TTCLQL  fold induction (PhoP, residues 12 14 15 18 19 HLGGL (Escherichia coli, UniProt P23836); Sort-seq, measured: YFP reporter; E. coli; PhoQ-PhoP variant library, added: 10 µM Mg2+; baseline: high Mg2+ state, higher = stronger signaling): 3.12

Repeated from above (set 3):
ATTCAAGC: 0.0917
